Published values gathered from unrelated publications.
Every numbered part comes from another study and shows a few of its results, in no order. Substitutions count along the parent as printed.

Block 1
Target: Interferon regulatory factor 5, full length, phosphomimetic (IRF5, Homo sapiens, UniProt Q13568-2, residues 1-514, K96S/S451D/S453D/S456D/S462D)
Technique: protein-binding microarray
Molecule type: double-stranded DNA, one strand shown
Matrix: in vitro
Concentration: 250 nM
Notes: 60-bp whole probe
With: salmon DNA 0.4 mg/ml
Relative to: random background probes
Reading: higher = stronger binding
Constant ends, left off below: GCCTAGCAC … GTCTTGATTCGCTTGACGCTGCTG
With `TTTGGTTCCGGTTTCGGTTAGTGCTAG` the log fluorescence was 9.88 z-score.
`TCATAGTTTCTTTTCTTACTGTGCTAG` has a log fluorescence of 2.81 z-score.
With `GACGGTTTCCGTCTCGGGACGTGCTAG` the log fluorescence was 1.03 z-score.
With `GACGAACTGTGTTTCGAGACGTGCTAG` the log fluorescence was 2.25 z-score.
The log fluorescence of `TTAGGACTGTTACTGCTTTAGTGCTAG` is reported as -0.11 z-score.
The log fluorescence of `TTAGGTTTCGGACTGGGCTAGTGCTAG` is reported as 5.36 z-score.
`GACGGTTTCGGTCTCTGGACGTGCTAG` gave a log fluorescence of 9.61 z-score.
`GACGAAGTGAGACTGGAGACGTGCTAG` has a log fluorescence of -0.335 z-score.
For `GACGATATCGGGACTGGAGTCGTGCTA`, the log fluorescence was 1.01 z-score.
The log fluorescence of `TTACATCTCAGACTGGATTAGTGCTAG` is reported as 0.376 z-score.
`TTAGGTATACTTTTCCTTTAGTGCTAG` has a log fluorescence of 0.369 z-score.
`GACGATATCGGGACTGGAAACGTGCTA` has a log fluorescence of 0.979 z-score.
For `TTAGGTTCCCTTTTCCTCTAGTGCTAG`, the log fluorescence was 0.612 z-score.

Block 2
Target: Prothrombin, mature alpha-thrombin (F2, Homo sapiens, UniProt P00734)
Technique: aptamer microarray, sandwich
Molecule type: DNA with 2'F-ANA
Matrix: in vitro
Concentration: 200 nM
Notes: whole 15-mer aptamer, many near background
With: Cy3 exosite-II aptamer, 400 nM
Reading: higher = stronger binding
Oligonucleotide: GGTTGGTGTGGTTGG
`2'F-ANA at 2 3 5 14` — result for “mean fluorescence intensity”: 51.7 a.u.
`2'F-ANA at 2 4 6 9 10 12 13 14 15` — result for “mean fluorescence intensity”: 61.7 a.u.
For `2'F-ANA at 1 5 6 7 8 10 12 13 14`, “mean fluorescence intensity” read 50.1 a.u.
Under “mean fluorescence intensity”, `2'F-ANA at 2 7 9 10 12 14 15` is recorded as 91.3 a.u.
`2'F-ANA at 4 5 7 8 11 12 13 14 15` — result for “mean fluorescence intensity”: 52.8 a.u.
Under “mean fluorescence intensity”, `2'F-ANA at 1 2 3 5 6 7 9 11 13 14 15` is recorded as 51.5 a.u.
For `2'F-ANA at 2 5 6 9 10 11 13 14`, “mean fluorescence intensity” read 47 a.u.
For `2'F-ANA at 1 2 5 8 9 11`, “mean fluorescence intensity” read 187 a.u.
Under “mean fluorescence intensity”, `2'F-ANA at 1 2 4 5 6 7 8 9 10 12 14` is recorded as 66.7 a.u.

Block 3
Target: CCNE2, cyclin fold, Cln2 fusion (human)
Technique: yeast growth competition, sequencing
Matrix: yeast
Notes: weak parent motif
Relative to: not given
Reading: higher = stronger binding
Starting sequence: MASTL docking peptide (human); PMIAKNLMCELDE
For `L11Y`, “normalised enrichment score” read 0.0418.
`D12E`: “normalised enrichment score” -0.0658.
`A4N` — result for “normalised enrichment score”: 0.0165.
For `I3C`, “normalised enrichment score” read -0.0344.
For `C9M`, “normalised enrichment score” read 0.0367.
Under “normalised enrichment score”, `D12N` is recorded as -0.168.
`L7I`: “normalised enrichment score” -0.0164.
Under “normalised enrichment score”, `D12V` is recorded as 0.0866.
`M8A`: “normalised enrichment score” -0.165.
`N6D` — result for “normalised enrichment score”: -0.139.

Mixed results
With `PhoQ, residues 284 288 289 292 302 303 ALASRC` the fold induction was 7.4 (PhoP, residues 12 14 15 18 19 AQALL (Escherichia coli, UniProt P23836); Sort-seq, measured: YFP reporter; E. coli; PhoQ-PhoP variant library, with: 10 µM Mg2+; relative to: high Mg2+ state, higher = stronger signaling).

Repeated from above (block 1):
The log fluorescence of `TTAGGACTGTTACTGCTTTAGTGCTAG` is reported as -0.11 z-score.
With `GACGAACTGTGTTTCGAGACGTGCTAG` the log fluorescence was 2.25 z-score.
